Results collected from several papers.
Lines come from different studies, so protocols differ. Values joined by “and” are separate records of one study, mostly repeats; a detail may differ. ± marks the error that the study gave.

Compound | cell line | assay | setting | scale | measurement | result
CO[C@@H]1[C@@H](OC(N)=O)[C@@H](O)[C@H](Oc2ccc3c(O)c(NC(=O)c4ccc(O)c(CC=C(C)C)c4)c(=O)oc3c2C)OC1(C)C | DLD-1 BRCA2-/- |  | 250 µM, replicate 2 |  | colony count | 0.1
CCC(=CCc1c(O)cc2c(c1O)C(=O)CC(c1ccc(O)cc1)O2)CC (stereo not shown) | HeLa | annexin V/PI | 24 µM, 48 h |  | late apoptotic cells | 51.6%
O=C(C[Se]C(=O)c1ccc2ccccc2c1)Nc1cccc(C(F)(F)F)c1 | NCI60 breast subpanel | cell growth | 10 µM, 48 h, one-dose |  | mean growth percent | -64.3%
O=C1c2c(O)cc(O)cc2-c2c(-c3ccc(O)cc3)oc3cc(O)cc1c23 | LCC2 shControl cells | label-free MS proteomics, item: L1CAM | 10 µM | baseline: DMSO | protein level ratio | 7.76
CCN(CC)CC(=O)Nc1cccc(-n2cc(-c3ccc4ccc(-c5cn(-c6cccc(NC(=O)CN(CC)CC)c6)nn5)cc4c3)nn2)c1 | RCC4 | PCR angiogenesis array, item: ANPEP | 5 x IC50, 2 h, normoxia | baseline: untreated | fold regulation | -1.57
Cc1cc(Cl)cc(-c2ccnc3cc(CN4C(=O)C5C(C4=O)C5(C)C)sc23)c1C[C@@H]1CNCCO1 (stereo partly shown) | CHP-212 parental | PI flow cytometry | 1 µM, 24 h |  | G2/M phase cells | 13.9%
CCN(C(=O)c1cc(F)ccc1Oc1nncnc1N1CCC2(C1)CN([C@H](CCCN(C)CCOC)C(C)C)C2)C(C)C | MHH-ES-1 | cell growth or viability | 72 h |  | GI50 | > 10 µM
Cn1ncc2cc(-c3cncc(Cl)c3N3CCC4(CCNC4=O)CC3)ccc21 | LS174T | gene expression, microarray, item: TTN mRNA | concentration not given, 24 h | baseline: untreated cells | log2 fold change | -1.39
[BH3-][P+]1(c2ccccc2)CCCCC1 | SW-620 | ELISA | IC50, 72 h |  | IL-6 level | 2.1 ± 0.35 pg/mL
CC(C)c1ccc(N(C)c2ccc3c(c2)OCC[C@H]3CNc2cnccc2C(=O)O)cc1 | HuH-28 | cell growth, CellTiter-Glo | 7 days |  | IC50 | ≥ 10 µM
O=C(N1CCCC1)n1cc(-c2ccc(-c3ccccc3)cc2)nn1 | mouse T cells | N-terminal labelling proteomics, item: SKP1A N-terminal peptides | 0.001 µM, 6 h | baseline: DMSO | SILAC ratio | 1.18
CN1CCCNC(=O)c2cccc(c2)C(=O)NCCCN(C)CCCNc2cccc3c2C(=O)c2cccc(c2C3=O)NCCC1 | SAS | RNA-Seq, item: VPS39 mRNA | 1 µM, 6 h | baseline: untreated cells | log2 fold change | -0.866
CC(C)(C)c1cc(-c2ccc3cc4ccccc4nc3n2)nc(-c2ccc3cc4ccccc4nc3n2)c1.[Cl-].[Cl-].[Ru+2].c1ccc2cc3nc4c5cccnc5c5ncccc5c4nc3cc2c1 | B16-F10 | cytotoxicity, resazurin | dark |  | EC50 | 50.7 µM
CSCC[C@@H](N)C(=O)N[C@@H](CCSC)C(=O)N[C@@H](CCCNC(=N)N)C(=O)N[C@@H](Cc1c[nH]c2ccccc12)C(=O)N[C@@H](CO)C(=O)N[C@@H](CCCNC(=N)N)C(=O)N[C@@H](CCCCN)C(=O)N[C@@H](CCSC)C(=O)N1CCC[C@H]1C(=O)N[C@@H](CS)C(=O)N[C@H](C(=O)N[C@@H](CO)C(=O)O)C(C)C | SUP-T1 | CXCL12-induced Erk phosphorylation, phospho flow cytometry | concentration not given, with: CXCL12 |  | inhibition | no inhibition
Cc1ccncc1.[Cl-].[Cl-].[Ru+2].c1cc(-c2ccc3cccnc3n2)nc(-c2ccc3cccnc3n2)c1.c1ccc2cc3nc4c5cccnc5c5ncccc5c4nc3cc2c1 | B16-F10 | cell viability | light 633 nm, 100 J/cm2 |  | EC50 | 2.12 ± 0.08 µM
CCCCCCCCCCCC(=O)N[C@H](CO)C[C@@H](O)c1ccccc1 | HeLa | CERT activity, HPLC-MS/MS lipidomics, item: sphingomyelin 16 | 1 µM, 24 h, not cell-number normalised |  | sphingomyelin level | 811000 pmol/sample and 725000 pmol/sample and 816000 pmol/sample
CC(C)(C)c1cc(-c2ccc3cccnc3n2)nc(-c2ccc3cccnc3n2)c1.COc1ccncc1.[Cl-].[Cl-].[Ru+2].c1ccc2cc3nc4c5cccnc5c5ncccc5c4nc3cc2c1 | B16-F10 | resazurin | with: light 633 nm, 100 J/cm2 | baseline: dark EC50 over light EC50 | phototoxicity index | 44
CNS(=O)(=O)Nc1nccc(Cc2c(C)c3ccc(Oc4ncccc4F)cc3oc2=O)c1F | Toledo | cell viability, CellTiter-Glo | 7 days |  | IC50 | > 1 µM
COCCCCCNc1nc(NCCCCCCN(C)C)c2cc(NC(=O)/C=C/CN(C)C)ccc2n1 | MCF7 | CellTiter-Glo | 50 µM, 72 h, unit not given | baseline: DMSO-treated cells | viability | 0.908 and 0.886 and 0.838
COC1CN([C@H]2CC[C@H]([C@@]3(C)Oc4c(Cl)cc(C(=O)NCc5c(SC)cc(C)[nH]c5=O)c(C)c4O3)CC2)C1 | RT-4 | cell growth or viability, ATP luminescence | 6 days |  | GI50 | > 10 µM
CC(=O)NCC(=O)N[C@@H](Cc1ccccc1)C(=O)N[C@@H](Cc1ccccc1)C(=O)N[C@@H](Cc1ccc(O)cc1)C(=O)O | mouse dermal papilla cells |  | 100 nM, 48 h |  | EdU-positive cells | 7.9%
Cc1ncsc1-c1ccc(C(C)NC(=O)C2CC(O)CN2C(=O)C(NC(=O)CCCCCCCCCCN2CCCC(Nc3ncc(Cl)c(Nc4ccccc4S(=O)(=O)C(C)C)n3)C2)C(C)(C)C)cc1 (stereo not shown) | 22Rv1 | RNA-seq, item: RDH10 mRNA | concentration not given | baseline: DMSO | log2 fold change | -1.24
NC(=O)c1ccc(-c2ccccc2Cl)c2c3c([nH]c12)CC[C@@H](N)C3 | MX1 | cell growth or viability |  |  | IC50 | 0.0156 µM
Cc1nc(Nc2ncc(C(=O)Nc3c(C)cccc3Cl)s2)cc(N2CCN(C(=O)CN)CC2)n1 | KU812 | flow cytometry | concentration not given, 6 h |  | early apoptotic cells | 16.7% and 18% and 18.6%
O=C(C[Se]C(=O)c1ccccc1Nc1ccccc1)Nc1cccc(C(F)(F)F)c1 | NCI60 breast subpanel | cell growth | 10 µM, 48 h, one-dose |  | mean growth percent | -60.1%
